{"data": "Results from different studies", "note": "Each numbered part is a random draw from the data of one study; scales do not carry over between parts.", "sequence of UniProt P51812 (whole entry, looked up)": "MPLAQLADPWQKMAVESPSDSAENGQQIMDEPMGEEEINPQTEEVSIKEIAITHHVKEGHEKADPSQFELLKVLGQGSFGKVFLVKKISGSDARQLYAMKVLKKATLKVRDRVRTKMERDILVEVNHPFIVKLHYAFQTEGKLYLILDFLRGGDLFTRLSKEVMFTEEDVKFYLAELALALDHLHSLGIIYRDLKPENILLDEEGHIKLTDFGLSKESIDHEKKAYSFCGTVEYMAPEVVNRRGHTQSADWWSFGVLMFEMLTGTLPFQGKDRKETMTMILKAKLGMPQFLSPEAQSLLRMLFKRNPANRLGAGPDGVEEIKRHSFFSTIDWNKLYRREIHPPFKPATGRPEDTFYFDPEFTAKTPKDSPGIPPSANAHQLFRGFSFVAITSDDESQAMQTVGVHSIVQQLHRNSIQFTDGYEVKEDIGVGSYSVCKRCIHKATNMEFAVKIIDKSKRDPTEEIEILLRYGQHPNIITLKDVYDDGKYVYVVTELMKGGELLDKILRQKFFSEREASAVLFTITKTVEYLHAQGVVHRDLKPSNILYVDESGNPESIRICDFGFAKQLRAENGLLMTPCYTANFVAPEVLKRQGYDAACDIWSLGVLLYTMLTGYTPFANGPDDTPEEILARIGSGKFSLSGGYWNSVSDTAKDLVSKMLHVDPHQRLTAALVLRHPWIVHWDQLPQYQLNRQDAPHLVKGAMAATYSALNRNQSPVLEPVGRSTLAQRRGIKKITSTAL", "sequence of UniProt P07947 (whole entry, looked up)": "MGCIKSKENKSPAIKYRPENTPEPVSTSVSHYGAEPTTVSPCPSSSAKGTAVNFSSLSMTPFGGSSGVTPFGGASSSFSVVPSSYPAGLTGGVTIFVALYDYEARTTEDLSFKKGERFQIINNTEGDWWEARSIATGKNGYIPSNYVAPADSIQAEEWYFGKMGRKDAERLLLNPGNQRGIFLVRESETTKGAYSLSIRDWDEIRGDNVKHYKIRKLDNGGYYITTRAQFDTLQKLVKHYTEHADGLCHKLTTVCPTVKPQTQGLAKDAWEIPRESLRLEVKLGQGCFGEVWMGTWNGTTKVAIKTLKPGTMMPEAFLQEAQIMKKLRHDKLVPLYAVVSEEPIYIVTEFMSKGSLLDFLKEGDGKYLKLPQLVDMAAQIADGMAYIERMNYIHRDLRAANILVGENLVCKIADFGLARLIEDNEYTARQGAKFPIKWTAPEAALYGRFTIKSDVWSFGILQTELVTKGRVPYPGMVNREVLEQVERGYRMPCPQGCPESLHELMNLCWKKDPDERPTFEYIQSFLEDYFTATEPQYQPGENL", "sequence of UniProt P54753 (whole entry, looked up)": "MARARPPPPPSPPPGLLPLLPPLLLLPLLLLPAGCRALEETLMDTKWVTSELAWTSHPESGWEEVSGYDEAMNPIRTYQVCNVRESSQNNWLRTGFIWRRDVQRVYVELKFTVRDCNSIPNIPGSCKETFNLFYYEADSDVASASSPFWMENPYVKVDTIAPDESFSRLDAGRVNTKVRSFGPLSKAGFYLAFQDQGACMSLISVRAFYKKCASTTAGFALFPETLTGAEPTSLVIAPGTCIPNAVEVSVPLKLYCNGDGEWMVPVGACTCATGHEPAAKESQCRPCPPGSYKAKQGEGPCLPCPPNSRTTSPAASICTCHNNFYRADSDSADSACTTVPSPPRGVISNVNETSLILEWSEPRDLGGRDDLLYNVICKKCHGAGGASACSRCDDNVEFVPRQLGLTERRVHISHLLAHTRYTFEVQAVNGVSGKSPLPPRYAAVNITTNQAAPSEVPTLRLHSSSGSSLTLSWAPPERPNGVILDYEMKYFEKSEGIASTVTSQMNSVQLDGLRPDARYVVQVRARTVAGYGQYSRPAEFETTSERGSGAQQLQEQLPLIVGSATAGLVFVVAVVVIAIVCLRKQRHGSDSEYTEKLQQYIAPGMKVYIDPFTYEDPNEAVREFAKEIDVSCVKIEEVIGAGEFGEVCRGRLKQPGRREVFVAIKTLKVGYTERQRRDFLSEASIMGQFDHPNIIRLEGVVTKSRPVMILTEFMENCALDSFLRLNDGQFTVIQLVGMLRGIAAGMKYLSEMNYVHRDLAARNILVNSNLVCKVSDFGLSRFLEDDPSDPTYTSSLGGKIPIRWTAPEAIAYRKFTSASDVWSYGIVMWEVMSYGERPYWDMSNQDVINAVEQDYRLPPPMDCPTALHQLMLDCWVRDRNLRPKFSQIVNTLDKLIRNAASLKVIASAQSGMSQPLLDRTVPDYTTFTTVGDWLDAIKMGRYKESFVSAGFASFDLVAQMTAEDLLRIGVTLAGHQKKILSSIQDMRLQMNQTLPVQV", "sequence of UniProt P49760 (whole entry, looked up)": "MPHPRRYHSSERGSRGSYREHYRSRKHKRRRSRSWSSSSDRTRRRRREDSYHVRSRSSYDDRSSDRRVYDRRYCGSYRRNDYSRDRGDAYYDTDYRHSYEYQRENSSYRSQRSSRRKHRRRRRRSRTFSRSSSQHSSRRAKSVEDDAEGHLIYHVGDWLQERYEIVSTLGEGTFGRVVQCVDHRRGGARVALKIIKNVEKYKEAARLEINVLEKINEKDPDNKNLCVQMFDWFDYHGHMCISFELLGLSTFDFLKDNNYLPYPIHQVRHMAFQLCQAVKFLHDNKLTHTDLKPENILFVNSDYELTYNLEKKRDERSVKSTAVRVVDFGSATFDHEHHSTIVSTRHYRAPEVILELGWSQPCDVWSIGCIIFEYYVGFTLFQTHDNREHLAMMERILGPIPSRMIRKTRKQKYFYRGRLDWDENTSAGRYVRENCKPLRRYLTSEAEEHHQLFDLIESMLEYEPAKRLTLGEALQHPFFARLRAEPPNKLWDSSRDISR", "sequence of UniProt Q9UBS0 (whole entry, looked up)": "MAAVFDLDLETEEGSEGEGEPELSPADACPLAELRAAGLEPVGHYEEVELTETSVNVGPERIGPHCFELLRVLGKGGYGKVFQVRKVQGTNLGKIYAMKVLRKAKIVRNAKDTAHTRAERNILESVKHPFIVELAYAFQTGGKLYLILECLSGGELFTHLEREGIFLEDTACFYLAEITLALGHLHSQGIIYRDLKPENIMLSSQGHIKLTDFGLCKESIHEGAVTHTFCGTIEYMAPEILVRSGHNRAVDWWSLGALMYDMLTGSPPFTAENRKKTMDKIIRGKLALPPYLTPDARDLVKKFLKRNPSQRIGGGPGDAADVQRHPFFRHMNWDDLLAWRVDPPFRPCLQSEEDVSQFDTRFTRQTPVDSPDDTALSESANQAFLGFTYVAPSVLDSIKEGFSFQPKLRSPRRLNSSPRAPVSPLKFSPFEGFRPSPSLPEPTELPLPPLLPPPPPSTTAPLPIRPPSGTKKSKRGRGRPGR", "sequence of UniProt P49674 (whole entry, looked up)": "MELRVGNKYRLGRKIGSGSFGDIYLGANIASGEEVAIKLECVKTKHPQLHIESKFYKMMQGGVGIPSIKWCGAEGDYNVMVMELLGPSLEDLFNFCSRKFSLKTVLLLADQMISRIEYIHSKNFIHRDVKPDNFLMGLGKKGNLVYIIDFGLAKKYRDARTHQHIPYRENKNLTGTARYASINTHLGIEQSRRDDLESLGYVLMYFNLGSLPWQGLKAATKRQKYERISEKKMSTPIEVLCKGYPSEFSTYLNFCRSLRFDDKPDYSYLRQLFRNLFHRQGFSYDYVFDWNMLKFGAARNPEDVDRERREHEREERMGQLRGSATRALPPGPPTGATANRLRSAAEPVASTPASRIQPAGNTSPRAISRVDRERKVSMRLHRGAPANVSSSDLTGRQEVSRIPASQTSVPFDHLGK", "sequence of UniProt Q9H0K1 (whole entry, looked up)": "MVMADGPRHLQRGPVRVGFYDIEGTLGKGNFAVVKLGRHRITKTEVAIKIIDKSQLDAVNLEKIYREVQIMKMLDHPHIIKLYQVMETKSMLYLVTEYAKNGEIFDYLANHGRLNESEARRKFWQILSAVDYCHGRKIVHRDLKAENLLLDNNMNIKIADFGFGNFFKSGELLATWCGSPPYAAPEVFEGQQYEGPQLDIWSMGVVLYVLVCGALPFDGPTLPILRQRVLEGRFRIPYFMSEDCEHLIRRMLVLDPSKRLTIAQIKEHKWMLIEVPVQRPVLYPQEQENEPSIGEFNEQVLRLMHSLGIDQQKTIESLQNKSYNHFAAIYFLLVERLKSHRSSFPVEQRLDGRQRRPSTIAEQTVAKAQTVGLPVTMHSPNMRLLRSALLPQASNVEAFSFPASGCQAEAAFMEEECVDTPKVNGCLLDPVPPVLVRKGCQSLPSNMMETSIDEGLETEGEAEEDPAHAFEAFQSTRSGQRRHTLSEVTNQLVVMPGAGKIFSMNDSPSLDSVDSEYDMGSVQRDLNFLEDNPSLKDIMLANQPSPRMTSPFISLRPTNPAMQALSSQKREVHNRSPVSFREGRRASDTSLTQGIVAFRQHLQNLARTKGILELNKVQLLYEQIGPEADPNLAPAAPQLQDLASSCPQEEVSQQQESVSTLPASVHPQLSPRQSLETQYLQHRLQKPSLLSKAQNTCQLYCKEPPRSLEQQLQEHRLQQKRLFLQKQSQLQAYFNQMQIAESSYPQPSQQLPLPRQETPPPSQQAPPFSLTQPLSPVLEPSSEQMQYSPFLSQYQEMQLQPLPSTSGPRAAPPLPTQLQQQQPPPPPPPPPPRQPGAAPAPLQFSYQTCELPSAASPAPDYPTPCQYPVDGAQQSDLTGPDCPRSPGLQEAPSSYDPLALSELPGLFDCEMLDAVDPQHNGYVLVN", "sequence of UniProt Q14012 (whole entry, looked up)": "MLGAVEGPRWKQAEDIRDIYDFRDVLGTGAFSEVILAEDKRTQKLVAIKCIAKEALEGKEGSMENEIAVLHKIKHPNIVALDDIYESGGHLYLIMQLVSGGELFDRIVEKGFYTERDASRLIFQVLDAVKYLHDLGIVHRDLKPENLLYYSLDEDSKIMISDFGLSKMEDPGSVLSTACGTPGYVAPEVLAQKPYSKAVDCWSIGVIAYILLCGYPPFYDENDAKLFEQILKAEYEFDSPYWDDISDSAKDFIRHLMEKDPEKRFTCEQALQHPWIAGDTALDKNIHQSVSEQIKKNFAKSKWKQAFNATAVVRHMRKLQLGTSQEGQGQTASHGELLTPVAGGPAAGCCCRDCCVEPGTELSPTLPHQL"}
{"data": "Series 1", "cell line": "normal-adjacent organoid sample E", "technique": "CellTiter-Glo", "concentration": "0.1 µM", "setting": "replicate mean", "reference": "DMSO"}
{"Compound": "CC(C)(C)OC(=O)N1CCCC1CNC1CCC(c2cc(F)ccc2F)(S(=O)(=O)c2ccc(Cl)cc2)CC1 (centres unmarked)", "viability": "110%"}
{"Compound": "CCS(=O)(=O)c1cc2cc(C[C@@](O)(CC(C)(C)c3ccc(F)cc3C(N)=O)C(F)(F)F)[nH]c2cn1", "viability": "111%"}
{"Compound": "CNCc1ccccc1-c1csc([C@H](C)Nc2nc(C)nc3cc(OC)c(OC)cc23)c1", "viability": "111%"}
{"Compound": "CCCOc1ccc([C@H]2[C@H](C(=O)O)[C@@H](c3ccc4c(c3)OCO4)CN2CC(=O)Nc2c(CC)cccc2CC)cc1", "viability": "122%"}
{"Compound": "CN1C(=O)[C@@H](N2CCc3c(nn(Cc4ccccc4)c3Br)C2=O)COc2ccccc21", "viability": "98%"}
{"Compound": "O=C(O)[C@H]1[C@H](Cn2nnc3ccccc3c2=O)CC[C@@H]1C(=O)c1ccc(OCCC2CCOCC2)cc1", "viability": "108%"}
{"data": "Series 2", "target": "Interferon regulatory factor 5, full length, phosphomimetic (IRF5, Homo sapiens, UniProt Q13568-2, residues 1-514, K96S/S451D/S453D/S456D/S462D)", "technique": "protein-binding microarray", "molecule type": "double-stranded DNA, one strand shown", "matrix": "in vitro", "concentration": "250 nM", "setting": "60-bp whole probe", "with": "salmon DNA 0.4 mg/ml", "reference": "random background probes", "direction": "higher = stronger binding", "constant ends, left off below": "GCCTAGCAC … GTCTTGATTCGCTTGACGCTGCTG"}
{"Strand": "TTAGGTTTCGACTGTCGGTTAGTGCTA", "log fluorescence": "7.03 z-score"}
{"Strand": "GACGGTATCGGGATCGGGACGTGCTAG", "log fluorescence": "1.33 z-score"}
{"Strand": "GACGATTTCGGGACTGGAGTCGTGCTA", "log fluorescence": "1.87 z-score"}
{"Strand": "TCATTTACCACATTCTCACTGTGCTAG", "log fluorescence": "0.897 z-score"}
{"Strand": "GACCGTTTCGGTATCGGGACGTGCTAG", "log fluorescence": "9.62 z-score"}
{"Strand": "TCCACTTGTCTTTTCACTTTGTGCTAG", "log fluorescence": "1.45 z-score"}
{"Strand": "CTTGCTTTTTAGATCGTCCCGTGCTAG", "log fluorescence": "0.508 z-score"}
{"Strand": "TTTTTTTTCTAACTAAAAATGTGCTAG", "log fluorescence": "1.71 z-score"}
{"data": "Series 3", "Structure (SMILES)": "COc1cc2ncnc(N3CCN(C(=O)Nc4ccc(Oc5ccccc5)cc4)CC3)c2cc1OC", "observed": "enzyme activity", "action": "inhibitor", "concentration": "0.5 µM", "reference": "control"}
{"target": "Serine/threonine-protein kinase SIK2 (SIK2, Homo sapiens, UniProt Q9H0K1)", "remaining activity [%]": 96}
{"target": "Calcium/calmodulin-dependent protein kinase type 1 (CAMK1, Homo sapiens, UniProt Q14012)", "remaining activity [%]": 96.9}
{"target": "Tyrosine-protein kinase Yes (YES1, Homo sapiens, UniProt P07947)", "remaining activity [%]": 106}
{"target": "Ephrin type-B receptor 3 (EPHB3, Homo sapiens, UniProt P54753)", "remaining activity [%]": 89.6}
{"target": "Serine/threonine-protein kinase BRSK2 (BRSK2, Homo sapiens, UniProt Q8IWQ3)", "remaining activity [%]": 94.1}
{"target": "Casein kinase I isoform epsilon (CSNK1E, Homo sapiens, UniProt P49674)", "remaining activity [%]": 94.6}
{"target": "Vascular endothelial growth factor receptor 1 (FLT1, Homo sapiens, UniProt P17948)", "remaining activity [%]": 79}
{"target": "Serine/threonine-protein kinase PAK 5 (PAK5, Homo sapiens, UniProt Q9P286)", "remaining activity [%]": 96.8}
{"target": "Ribosomal protein S6 kinase beta-2 (RPS6KB2, Homo sapiens, UniProt Q9UBS0)", "remaining activity [%]": 92.4}
{"target": "Dual specificity protein kinase CLK2 (CLK2, Homo sapiens, UniProt P49760)", "remaining activity [%]": 81.3}
{"target": "Serine/threonine-protein kinase PAK 4 (PAK4, Homo sapiens, UniProt O96013)", "remaining activity [%]": 101}
{"target": "Receptor tyrosine-protein kinase erbB-2 (ERBB2, Homo sapiens, UniProt P04626)", "remaining activity [%]": 100}
{"target": "Ribosomal protein S6 kinase alpha-3 (RPS6KA3, Homo sapiens, UniProt P51812)", "remaining activity [%]": 115}
{"target": "Insulin-like growth factor 1 receptor (IGF1R, Homo sapiens, UniProt P08069)", "remaining activity [%]": 103}
{"data": "Other studies, line by line"}
{"Compound": "CCOC(=O)[C@@H]1CSCC(=O)N[C@@H](CC)C(=O)N(C)[C@@H](C)C(=O)N[C@@H](CC(C)C)C(=O)N2CCC[C@@H]2C(=O)N(CC(C)C)CC(=O)N[C@@H](CC(C)C)C(=O)N(C)[C@@H](C)C(=O)N[C@@H](CC(C)C)C(=O)N1C", "test system": "hydrocarbon/water", "measurement": "logD", "value": 2.38}
{"note": "For quick reference, copied from above (series 2):"}
{"Strand": "TCATTTACCACATTCTCACTGTGCTAG", "log fluorescence": "0.897 z-score"}
{"Strand": "GACCGTTTCGGTATCGGGACGTGCTAG", "log fluorescence": "9.62 z-score"}
